Measured values from different studies.
Several values in a cell are separate wells, animals, samples, runs or records. ± gives the spread as reported. In brackets after ≈: the same amount, converted by molar mass.
UniProt P41743, sequence (whole entry, looked up): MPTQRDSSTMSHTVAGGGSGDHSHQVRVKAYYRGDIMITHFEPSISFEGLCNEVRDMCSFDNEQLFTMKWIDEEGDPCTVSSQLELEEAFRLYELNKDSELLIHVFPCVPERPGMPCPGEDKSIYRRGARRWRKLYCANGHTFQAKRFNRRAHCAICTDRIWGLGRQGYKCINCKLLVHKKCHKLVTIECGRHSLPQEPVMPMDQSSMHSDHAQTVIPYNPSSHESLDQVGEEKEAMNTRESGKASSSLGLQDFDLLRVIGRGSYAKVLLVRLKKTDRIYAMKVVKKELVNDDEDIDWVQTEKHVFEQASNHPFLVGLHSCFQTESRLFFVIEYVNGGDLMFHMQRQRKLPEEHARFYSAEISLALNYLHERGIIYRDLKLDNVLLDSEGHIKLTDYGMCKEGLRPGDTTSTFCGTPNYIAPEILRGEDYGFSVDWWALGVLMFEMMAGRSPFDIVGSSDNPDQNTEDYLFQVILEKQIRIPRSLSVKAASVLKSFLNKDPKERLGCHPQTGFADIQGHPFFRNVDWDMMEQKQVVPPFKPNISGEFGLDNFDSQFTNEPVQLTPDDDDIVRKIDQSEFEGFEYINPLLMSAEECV
UniProt Q15349, sequence (whole entry, looked up): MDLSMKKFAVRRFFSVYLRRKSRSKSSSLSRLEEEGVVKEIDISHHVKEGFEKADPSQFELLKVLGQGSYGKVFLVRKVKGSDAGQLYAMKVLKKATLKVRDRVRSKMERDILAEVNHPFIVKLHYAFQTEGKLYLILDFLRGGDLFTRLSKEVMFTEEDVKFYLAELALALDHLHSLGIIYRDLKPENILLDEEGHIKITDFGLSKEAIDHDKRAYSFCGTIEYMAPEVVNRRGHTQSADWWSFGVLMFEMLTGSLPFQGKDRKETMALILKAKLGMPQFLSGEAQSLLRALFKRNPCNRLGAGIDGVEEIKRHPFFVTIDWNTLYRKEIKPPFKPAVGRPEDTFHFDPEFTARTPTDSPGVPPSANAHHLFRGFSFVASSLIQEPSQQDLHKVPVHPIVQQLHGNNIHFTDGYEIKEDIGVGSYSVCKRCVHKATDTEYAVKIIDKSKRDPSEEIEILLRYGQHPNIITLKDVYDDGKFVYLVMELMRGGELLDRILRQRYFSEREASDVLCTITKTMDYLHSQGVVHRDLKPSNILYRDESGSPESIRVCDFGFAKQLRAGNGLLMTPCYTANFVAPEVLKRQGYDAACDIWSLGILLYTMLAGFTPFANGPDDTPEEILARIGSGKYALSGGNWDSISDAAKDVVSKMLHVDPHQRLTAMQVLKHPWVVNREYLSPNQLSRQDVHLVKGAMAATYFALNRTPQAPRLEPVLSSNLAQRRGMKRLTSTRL

Cc1ccc(CNC(=O)Cc2c(C)nc3ccc(C)cn23)cc1  MIC (Mycobacterium kansasii; microbial growth; 6 days): > 50 µM
CC(C)CC(C(=O)N1CC2(CC1C#N)C(=O)Nc1ccccc12)N(C)C(=O)c1cc2c(F)cc(F)c(F)c2[nH]1 (stereo not drawn)  inhibition (Human coronavirus 229E; cytopathic effect; MRC5; 1.99 nM): 42.1%
CN[C@@H]1[C@H](O)[C@H](NC)[C@H]2O[C@]3(O)[C@H](O[C@@H]2[C@H]1O)O[C@H](C)C[C@H]3NC(=O)Cc1ccccn1  MIC (Proteus vulgaris; microbial growth, broth dilution; ATCC33420): > 200 µg/mL
O=C(NNc1ccccc1)c1nnc(C23CC4CC(CC(C4)C2)C3)o1  EC50 (Fusarium graminearum; fungal growth, inhibitor): > 50 µg/mL
CC[C@H](C)[C@H](NC(=O)[C@H](CO)NC(=O)[C@H](Cc1ccc(O)cc1)NC(=O)[C@H](Cc1ccc(O)cc1)NC(=O)[C@H](CC(N)=O)NC(=O)CNC(=O)[C@H](CO)NC(=O)[C@H](Cc1ccc(O)cc1)NC(=O)[C@H](CO)NC(=O)[C@H](CO)NC(=O)[C@H](CC(N)=O)NC(=O)COCCOCCNC(=O)CN1CCN(CC(=O)O)CCN(CC(=O)O)CCN(CC(=O)O)CC1)C(=O)N[C@@H](CC(C)C)C(N)=O [copper-64 labelled]  tumour uptake (dynamic PET; mouse, tamoxifen-induced PDAC, blood; intravenous, 0.1 µg/mouse, 2.5 min): 18.4 %ID/mL
Cc1cc(C(=O)Nc2nc3cccc(C)c3n2[C@H]2CCCCN(C(=O)/C=C/CN(C)C)C2)ccn1  cell growth (Trypanosoma brucei brucei; 2T1 parental; 5 x EC50, 24 h; baseline: time 0 h): 120% and 100% and 133%
CC(C)(C)C(=O)OCOP(=O)(OCOC(=O)C(C)(C)C)C1CCCN(O)C1=O (stereo not drawn)  log GI50 (UACC-257): -5.92 log M
Cc1cc(Oc2nc(N3CC[C@@H](c4ccncc4)C3)ncc2F)[nH]n1  normalised growth (Mycobacterium tuberculosis; THP-1, H37Rv non-replicating; 0.03002 µM, day 4): 5.66% and -3.77%
C=CCN1C(=O)C(CC=C)(C(=O)OCC)Oc2cc(F)ccc21 (stereo not drawn)  inhibition (Fusarium graminearum; microbial growth; 200 µg/mL): > 50%
Cc1ccc2nc(C)c(CC(=O)NCc3ccc(N(C)C)cc3)n2c1  MIC (Mycobacteroides abscessus; ATCC 19977; 72 h): > 50 µM
CN[C@@H]1[C@H](O)[C@H](NC)[C@H]2O[C@]3(O)[C@H](O[C@@H]2[C@H]1O)O[C@H](C)C[C@H]3NC(=O)Cc1ccc(Cl)cn1  MIC (Streptococcus pyogenes; microbial growth, broth dilution; ATCC700294): 25 µg/mL
Cc1ccc2nc(C)c(C(=O)C(=O)NCc3ccccc3)n2c1  MIC (Mycobacteroides abscessus; ATCC 19977; 72 h): > 128 µM
COc1ccccc1-c1n[nH]c2nc(NC3CCN(C(=O)Cc4ccc(F)cc4F)CC3)ncc12  relative abundance (bead binding, competition bead pull-down, measured: LINJ.36.7240; Leishmania donovani extract; 10 µM; baseline: vehicle): 1.07
CS(C)(=O)=Nc1ccc(-c2ccc(-c3nc4cc(O[C@@H]5CO[C@H]6[C@@H]5OC[C@H]6O)[nH]c4cc3F)cc2)cc1  inhibition (Protein kinase C iota type (PRKCI, Homo sapiens, UniProt P41743); enzyme activity, inhibitor; 10 µM): -2%
CN[C@@H]1[C@H](O)[C@H](NC)[C@H]2O[C@]3(O)[C@H](O[C@@H]2[C@H]1O)O[C@H](C)C[C@H]3NC(=O)Cc1cscn1  MIC (Proteus vulgaris; microbial growth, broth dilution; ATCC33420): > 200 µg/mL
CN(C)[C@H]1C[C@@]23CC[C@@]4(O2)C(=CC[C@]2(C)[C@@H](c5ccc6ccncc6c5)CC[C@H]24)C=C3[C@@H](O)[C@@H]1O  inhibition (Ribosomal protein S6 kinase alpha-2, kinase domain 1 (RPS6KA2, Homo sapiens, UniProt Q15349); ATP probe labelling, inhibitor, KiNativ profiling; 0.1 µM): -8.5%
O=C(NNc1ccc(Cl)cc1)c1nnc(CC23CC4CC(CC(C4)C2)C3)o1  EC50 (Pyricularia grisea; microbial growth): 5.05 µg/mL (≈ 13.1 µM)
COc1ccccc1-c1n[nH]c2nc(N[C@H]3CC[C@H](NS(=O)(=O)CC(C)C)CC3)ncc12  relative abundance (bead binding, competition bead pull-down, measured: LINJ.26.1960; Leishmania donovani extract; 10 µM; baseline: vehicle): 0.94
Cc1ccc(CNC(=O)C(=O)c2c(C)nc3ccc(C)cn23)cc1  MIC (Mycobacterium avium; microbial growth; 6 days): > 128 µM
CO[C@H]1/C=C/O[C@@]2(C)Oc3c(C)c(O)c4c(c3C2=O)C2=NC3(CCN(CC(C)C)CC3)NC2=C(NC(=O)/C(C)=C\C=C\[C@H](C)[C@H](O)[C@@H](C)[C@@H](O)[C@@H](C)[C@H](OC(=O)c2ccccc2)[C@@H]1C)C4=O  MIC (Mycobacteroides abscessus; RFB-R1 rifamycin-resistant RNAP mutant; 90% growth inhibition): > 100 µM
CN[C@@H]1[C@H](O)[C@H](NC)[C@H]2O[C@]3(O)[C@H](O[C@@H]2[C@H]1O)O[C@H](C)C[C@H]3NC(=O)Cc1cc(Cl)ccn1  MIC (Streptococcus pyogenes; microbial growth, broth dilution; ATCC700294): 25 µg/mL
O=C1NC2(CC2)COc2ncc(F)cc2[C@H]2COCCN2c2ccn3ncc1c3n2  serum LDH activity (Sprague-Dawley rat, female, serum; oral, 20 mg/kg/day, end of treatment, 4-week subacute toxicity): 768 ± 410 U/L
CN[C@@H]1[C@H](O)[C@H](NC)[C@H]2O[C@]3(O)[C@H](O[C@@H]2[C@H]1O)O[C@H](C)C[C@H]3NC(=O)Cc1ccc(F)cn1  MIC (Mycobacteroides abscessus; microbial growth; ATCC19977): 50 µg/mL
Cc1ccc2nc(C)c(C(=O)C(=O)N(C)C)n2c1  MIC (Mycobacterium kansasii; microbial growth; 6 days): > 128 µM

Excerpt of the above:
Cc1ccc2nc(C)c(C(=O)C(=O)NCc3ccccc3)n2c1  MIC (Mycobacteroides abscessus; ATCC 19977; 72 h): > 128 µM
C=CCN1C(=O)C(CC=C)(C(=O)OCC)Oc2cc(F)ccc21 (stereo not drawn)  inhibition (Fusarium graminearum; microbial growth; 200 µg/mL): > 50%
CC(C)(C)C(=O)OCOP(=O)(OCOC(=O)C(C)(C)C)C1CCCN(O)C1=O (stereo not drawn)  log GI50 (UACC-257): -5.92 log M
CN[C@@H]1[C@H](O)[C@H](NC)[C@H]2O[C@]3(O)[C@H](O[C@@H]2[C@H]1O)O[C@H](C)C[C@H]3NC(=O)Cc1ccc(Cl)cn1  MIC (Streptococcus pyogenes; microbial growth, broth dilution; ATCC700294): 25 µg/mL
